# Measurements pooled from the literature.
# Each numbered part is a random draw from the data of one study; scales do not carry over between parts. Positions count from the first letter of the parent shown.

# Set 1
# Target: Interferon regulatory factor 3, full length, phosphomimetic (IRF3, Homo sapiens, UniProt Q14653, residues 1-427, S386D/S396D/S398D/S402D/T404D/S405D)
# Chain of UniProt Q14653 (whole entry, unmodified, looked up): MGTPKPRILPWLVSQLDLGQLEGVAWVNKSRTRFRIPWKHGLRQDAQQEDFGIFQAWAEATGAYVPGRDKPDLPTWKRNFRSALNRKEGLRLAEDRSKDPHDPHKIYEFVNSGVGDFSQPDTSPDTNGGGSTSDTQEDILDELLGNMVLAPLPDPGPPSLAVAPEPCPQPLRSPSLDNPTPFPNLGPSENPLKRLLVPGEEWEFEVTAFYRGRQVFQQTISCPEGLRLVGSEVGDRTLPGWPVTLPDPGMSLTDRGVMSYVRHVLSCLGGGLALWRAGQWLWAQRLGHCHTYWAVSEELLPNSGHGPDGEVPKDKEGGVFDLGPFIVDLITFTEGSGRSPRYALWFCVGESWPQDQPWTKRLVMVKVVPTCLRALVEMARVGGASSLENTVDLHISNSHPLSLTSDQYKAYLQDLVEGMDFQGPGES
# Method: protein-binding microarray
# Form: double-stranded DNA, one strand shown
# Medium: in vitro
# Concentration: 2540 nM top
# Setting: 60-bp whole probe
# Together with: salmon DNA 0.4 mg/ml
# Reference: random background probes
# Direction: higher = stronger binding
# Constant ends, left off below: GCCTAGCAC … GTCTTGATTCGCTTGACGCTGCTG
Strand,fitted relative affinity
TTAGGACTGGGTAGCGGTTAGTGCTAG,-0.778 z-score
TTCTGTATGGGCATTTTTCTAGTGCTA,0.133 z-score
GGCGGTTTCCTTTCCCTGACGTGCTAG,10.5 z-score
CTCATTCGTCATTTCACAGTGTGCTAG,1.42 z-score
GACGGACTGCGGACTGGGGACGTGCTA,-0.988 z-score
AACTGTCTGCCTTTCAATCCGTGCTAG,0.483 z-score
TTAGTACTGGGACTGGGTTAGTGCTAG,-0.682 z-score
GACGGACGGGGGTTTCGGGACGTGCTA,0.935 z-score
TTAGGTTTCGGACTGGGCTAGTGCTAG,4.21 z-score
GACGGTATGGACTATCGGGACGTGCTA,-0.452 z-score
TTAGGTTACGGGACTGGGTTAGTGCTA,-0.193 z-score
TCATGCTCATTTTTCAGACTGTGCTAG,1.28 z-score
ATAGATCTCAGTCTCGATTAGTGCTAG,0.802 z-score
ATAGGTATCCTACTGCTTTAGTGCTAG,2.44 z-score
TTAGGACTGGGGTTTGGGTTAGTGCTA,-1.12 z-score
AATTAAATGATATATATCCATGTGCTA,0.447 z-score

# Set 2
# Target: CCND3, cyclin fold, Cln2 fusion (human)
# Method: yeast growth competition, sequencing
# Medium: yeast
# Setting: weak parent motif
# Reference: not given
# Direction: higher = stronger binding
# Parent: PKN2 docking peptide (human); VSAVRKLDFSDTM
Change,normalised enrichment score
VSAVRKLHFSDTM [D8H],0.517
VSAVRSLDFSDTM [K6S],0.485
VSAVRKLDFSVTM [D11V],0.592
VSAVRKLTFSDTM [D8T],0.346
VSAHRKLDFSDTM [V4H],0.0153
VSAVRKLDFTDTM [S10T],0.948
VSAVRKPDFSDTM [L7P],0.165
VSAVRKLDFRDTM [S10R],0.488
VSAVRKEDFSDTM [L7E],-0.2
VSAVRKNDFSDTM [L7N],-0.0147
VSAVRKLDFSRTM [D11R],0.385
VSAVRKLDFQDTM [S10Q],0.758
VSAVRKDDFSDTM [L7D],-0.0425
VFAVRKLDFSDTM [S2F],-0.15
VSTVRKLDFSDTM [A3T],0.0724
VSAVRYLDFSDTM [K6Y],0.325
VSAVRKLDPSDTM [F9P],-0.0433
VSANRKLDFSDTM [V4N],0.438
VSAVRKLWFSDTM [D8W],0.24
VSSVRKLDFSDTM [A3S],0.181
VSAVEKLDFSDTM [R5E],0.00532
VGAVRKLDFSDTM [S2G],1.19
VSAVRKLDFSDGM [T12G],0.968
VSAVRDLDFSDTM [K6D],-0.119
VSAVRKLDGSDTM [F9G],0.488

# Set 3
# Target: ABI1, truncated, D143A, DHFR fusion (Arabidopsis thaliana)
# Method: DHFR PCA, deep sequencing
# Medium: yeast
# Setting: methotrexate growth selection, single substitutions
# Together with: (+)-ABA 0.39 µM
# Reference: wild-type fitted maximum
# Direction: higher = stronger binding
# Parent: PYL1, truncated, DHFR fusion (Arabidopsis thaliana); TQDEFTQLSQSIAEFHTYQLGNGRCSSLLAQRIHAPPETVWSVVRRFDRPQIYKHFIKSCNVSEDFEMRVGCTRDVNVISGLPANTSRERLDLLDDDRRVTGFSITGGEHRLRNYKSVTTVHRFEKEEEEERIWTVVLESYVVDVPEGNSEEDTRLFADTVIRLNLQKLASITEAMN; partner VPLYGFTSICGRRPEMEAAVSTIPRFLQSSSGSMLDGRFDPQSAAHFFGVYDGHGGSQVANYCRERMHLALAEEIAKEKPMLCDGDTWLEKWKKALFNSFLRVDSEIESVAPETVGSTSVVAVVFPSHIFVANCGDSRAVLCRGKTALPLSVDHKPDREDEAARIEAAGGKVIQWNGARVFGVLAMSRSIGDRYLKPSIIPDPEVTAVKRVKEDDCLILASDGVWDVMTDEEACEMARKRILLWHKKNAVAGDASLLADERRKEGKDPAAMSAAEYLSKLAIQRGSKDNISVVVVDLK
Change,relative binding score [%]
T73F,60.1
G148F,-19.1
V70S,-5.25
T106G,10.6
E109S,22.6
V40P,-6.57
Y53W,52.3
E152L,5.56
K126E,51.2
T73I,56.4
H122M,2.97
V161Y,7.55
Q2Y,65.7
V76Y,-1.72
N61A,45.8
I52F,17
Y115V,5.9
K116I,-3.6
R155Q,13.6
C72Y,-9.61
R46H,10.9
L28Q,3.87
S9D,33.4
V121R,-4.1
L91W,-18.5

# Set 4
# Target: Centromere-binding protein 1, full length, N-terminal tag (CBF1, Saccharomyces cerevisiae, UniProt P17106, residues 1-351)
# Chain of UniProt P17106 (whole entry, looked up): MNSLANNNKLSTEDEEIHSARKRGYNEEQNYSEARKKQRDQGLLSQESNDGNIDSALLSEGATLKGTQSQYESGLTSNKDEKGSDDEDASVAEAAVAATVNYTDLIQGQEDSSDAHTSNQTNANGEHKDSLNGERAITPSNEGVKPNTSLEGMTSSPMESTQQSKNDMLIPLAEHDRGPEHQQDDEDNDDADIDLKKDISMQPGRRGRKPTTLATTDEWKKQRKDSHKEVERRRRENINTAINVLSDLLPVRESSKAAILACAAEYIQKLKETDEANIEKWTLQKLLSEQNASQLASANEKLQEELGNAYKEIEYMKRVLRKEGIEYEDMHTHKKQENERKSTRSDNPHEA
# Method: protein-binding microarray
# Form: double-stranded DNA, one strand shown
# Medium: in vitro
# Concentration: 0.8 µM
# Setting: whole 60-bp probe, no competitor
# Direction: higher = stronger binding
Strand,fluorescence intensity [a.u.]
CTAAAAGGTCTATAATAGGTGGTGCCTTCTTGCTTCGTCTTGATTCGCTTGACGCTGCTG,499
GAAACCAATCATGCTAACGTGGATGCGAAGGGATAGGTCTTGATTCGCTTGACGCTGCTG,560
GAATATCTTTTTAACATCAGAATTTCAACAAATTAGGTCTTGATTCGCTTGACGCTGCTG,544
CTATCTCTTGAATGTTGCGTGTAGCTTGATTAATTCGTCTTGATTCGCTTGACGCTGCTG,532
CTACACGAGATCCATCTCGTGACCGTGAAAAAATTCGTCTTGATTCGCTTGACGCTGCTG,5420
GAATTGTGATCTTTCCACGTTCAGCAAGACACATAGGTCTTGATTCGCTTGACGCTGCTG,538
GAAAGTCACTACCTTCATCACCCGTACGAGTATTAGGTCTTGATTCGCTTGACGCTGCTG,527
GAATATAGTTTTACTTGCGTGAGGTTAGGGATTTAGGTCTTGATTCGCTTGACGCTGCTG,504
CTACAGGAAAAGAAGATGGTGACATATGCTTAGTTCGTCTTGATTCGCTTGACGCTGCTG,569
GAACCCGCGTCAGCAGATGTCACAATTTGATTATAGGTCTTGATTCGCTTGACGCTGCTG,647
GAACAAGATCAACGTCACGTCATAGTCAACTTCTAGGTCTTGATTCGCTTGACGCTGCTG,687
CTATGGTAATGAGGGCTGGTCACAGATTACCTTTTCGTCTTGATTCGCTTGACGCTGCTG,513
GAAGATGTTTTACCAGGTGAGTCATATAAATATTAGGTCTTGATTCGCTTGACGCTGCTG,574
CTAGCGATATCAAGTGATGTTACCTTCCTTTACTTCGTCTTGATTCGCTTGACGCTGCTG,565
GAAAGAGTAAAAGGCCGTGCGCACTCTGACAAGTAGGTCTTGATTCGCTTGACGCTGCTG,530
CTAAATATTTTAGGTGACACTGCCACTTTATTGTTCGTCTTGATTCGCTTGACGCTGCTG,516

# Excerpt of the above (set 4):
Strand,fluorescence intensity [a.u.]
GAATTGTGATCTTTCCACGTTCAGCAAGACACATAGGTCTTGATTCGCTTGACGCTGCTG,538
GAAGATGTTTTACCAGGTGAGTCATATAAATATTAGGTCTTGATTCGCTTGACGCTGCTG,574
CTACACGAGATCCATCTCGTGACCGTGAAAAAATTCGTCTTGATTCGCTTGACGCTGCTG,5420
GAATATAGTTTTACTTGCGTGAGGTTAGGGATTTAGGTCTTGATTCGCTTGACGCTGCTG,504
GAACCCGCGTCAGCAGATGTCACAATTTGATTATAGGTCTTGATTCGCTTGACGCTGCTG,647
CTATGGTAATGAGGGCTGGTCACAGATTACCTTTTCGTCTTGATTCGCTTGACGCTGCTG,513
CTAAATATTTTAGGTGACACTGCCACTTTATTGTTCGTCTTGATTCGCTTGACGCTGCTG,516
CTACAGGAAAAGAAGATGGTGACATATGCTTAGTTCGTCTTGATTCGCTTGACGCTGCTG,569
GAAACCAATCATGCTAACGTGGATGCGAAGGGATAGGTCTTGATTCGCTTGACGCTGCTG,560
CTAGCGATATCAAGTGATGTTACCTTCCTTTACTTCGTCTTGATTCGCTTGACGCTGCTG,565
GAAAGAGTAAAAGGCCGTGCGCACTCTGACAAGTAGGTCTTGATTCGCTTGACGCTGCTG,530
CTATCTCTTGAATGTTGCGTGTAGCTTGATTAATTCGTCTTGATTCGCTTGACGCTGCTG,532
